Published values of several laboratories.
Compare with care: the assays were run in different laboratories. ± marks the error that the study gave.
APP: Amyloid-beta precursor protein (APP, Homo sapiens, UniProt P05067)
Sequence of UniProt P05067 (whole entry, looked up): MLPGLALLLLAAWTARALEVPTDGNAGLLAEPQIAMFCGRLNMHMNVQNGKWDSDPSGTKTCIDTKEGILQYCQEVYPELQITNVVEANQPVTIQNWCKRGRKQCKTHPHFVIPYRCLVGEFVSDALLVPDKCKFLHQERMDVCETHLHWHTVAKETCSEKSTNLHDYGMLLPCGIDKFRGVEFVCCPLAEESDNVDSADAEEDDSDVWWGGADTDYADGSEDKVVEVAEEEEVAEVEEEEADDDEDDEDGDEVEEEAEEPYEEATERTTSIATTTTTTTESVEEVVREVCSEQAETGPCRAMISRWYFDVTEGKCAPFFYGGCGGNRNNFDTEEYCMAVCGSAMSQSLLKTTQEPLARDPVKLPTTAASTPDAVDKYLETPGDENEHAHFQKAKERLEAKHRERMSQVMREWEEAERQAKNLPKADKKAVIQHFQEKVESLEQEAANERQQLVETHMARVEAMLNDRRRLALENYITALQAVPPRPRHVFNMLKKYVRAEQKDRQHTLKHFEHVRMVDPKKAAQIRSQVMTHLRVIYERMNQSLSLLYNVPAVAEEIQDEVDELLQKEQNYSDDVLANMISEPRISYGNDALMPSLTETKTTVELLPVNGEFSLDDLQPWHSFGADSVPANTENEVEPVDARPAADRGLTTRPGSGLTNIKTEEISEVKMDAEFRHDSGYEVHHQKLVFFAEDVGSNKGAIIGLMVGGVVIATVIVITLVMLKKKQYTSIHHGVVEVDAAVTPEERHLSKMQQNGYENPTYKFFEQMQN
lasR: Transcriptional activator protein LasR (lasR, Pseudomonas aeruginosa, UniProt P25084)
Sequence of UniProt P25084 (whole entry, looked up): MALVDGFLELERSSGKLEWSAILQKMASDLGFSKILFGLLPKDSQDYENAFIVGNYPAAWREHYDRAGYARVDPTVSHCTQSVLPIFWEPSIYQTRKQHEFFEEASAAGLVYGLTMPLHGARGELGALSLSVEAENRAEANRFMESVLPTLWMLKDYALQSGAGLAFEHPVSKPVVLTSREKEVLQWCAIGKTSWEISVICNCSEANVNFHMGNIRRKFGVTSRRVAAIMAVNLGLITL
Sequence of UniProt A5GZW8 (whole entry, looked up): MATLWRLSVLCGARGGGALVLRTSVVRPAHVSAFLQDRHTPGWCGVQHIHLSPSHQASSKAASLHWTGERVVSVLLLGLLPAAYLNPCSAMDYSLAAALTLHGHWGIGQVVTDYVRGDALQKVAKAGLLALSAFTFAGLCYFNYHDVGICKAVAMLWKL
Sequence of UniProt O00411 (whole entry, looked up): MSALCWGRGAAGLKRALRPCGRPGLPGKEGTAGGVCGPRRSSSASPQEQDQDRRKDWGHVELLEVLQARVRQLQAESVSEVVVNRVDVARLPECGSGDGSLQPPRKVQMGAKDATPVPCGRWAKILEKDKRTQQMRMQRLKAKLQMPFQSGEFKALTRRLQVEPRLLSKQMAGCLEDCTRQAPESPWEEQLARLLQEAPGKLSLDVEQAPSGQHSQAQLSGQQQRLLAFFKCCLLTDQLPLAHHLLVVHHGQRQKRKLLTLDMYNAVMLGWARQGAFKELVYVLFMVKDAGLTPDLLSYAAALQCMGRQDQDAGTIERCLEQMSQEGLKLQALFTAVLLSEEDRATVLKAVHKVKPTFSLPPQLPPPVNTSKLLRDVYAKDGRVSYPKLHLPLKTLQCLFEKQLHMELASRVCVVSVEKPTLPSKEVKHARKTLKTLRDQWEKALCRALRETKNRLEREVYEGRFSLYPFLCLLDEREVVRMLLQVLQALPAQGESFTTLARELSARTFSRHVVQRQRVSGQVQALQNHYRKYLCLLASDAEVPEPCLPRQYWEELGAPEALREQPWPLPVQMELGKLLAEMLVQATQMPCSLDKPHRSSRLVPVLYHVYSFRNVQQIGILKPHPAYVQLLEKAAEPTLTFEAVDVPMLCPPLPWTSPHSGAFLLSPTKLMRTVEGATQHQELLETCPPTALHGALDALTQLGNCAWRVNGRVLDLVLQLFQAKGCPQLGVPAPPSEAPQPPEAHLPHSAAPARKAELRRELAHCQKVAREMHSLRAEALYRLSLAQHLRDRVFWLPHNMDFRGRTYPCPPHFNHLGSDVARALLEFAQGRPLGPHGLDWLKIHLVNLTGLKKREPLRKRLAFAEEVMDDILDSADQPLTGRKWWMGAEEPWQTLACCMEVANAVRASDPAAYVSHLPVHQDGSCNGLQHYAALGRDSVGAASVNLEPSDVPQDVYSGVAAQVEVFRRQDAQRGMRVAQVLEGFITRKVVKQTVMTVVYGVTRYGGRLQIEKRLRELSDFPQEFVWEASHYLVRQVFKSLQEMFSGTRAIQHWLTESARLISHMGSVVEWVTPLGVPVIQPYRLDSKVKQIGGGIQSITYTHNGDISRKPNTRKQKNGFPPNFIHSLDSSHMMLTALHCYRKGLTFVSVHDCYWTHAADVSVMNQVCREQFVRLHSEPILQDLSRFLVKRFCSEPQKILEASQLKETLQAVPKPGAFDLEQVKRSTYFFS
Sequence of UniProt D0VWV4 (whole entry, looked up): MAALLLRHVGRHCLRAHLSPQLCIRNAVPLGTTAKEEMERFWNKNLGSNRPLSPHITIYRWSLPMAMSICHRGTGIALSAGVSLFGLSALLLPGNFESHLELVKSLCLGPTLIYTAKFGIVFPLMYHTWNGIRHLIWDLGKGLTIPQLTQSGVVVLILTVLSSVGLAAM
Sequence of UniProt P17301 (whole entry, looked up): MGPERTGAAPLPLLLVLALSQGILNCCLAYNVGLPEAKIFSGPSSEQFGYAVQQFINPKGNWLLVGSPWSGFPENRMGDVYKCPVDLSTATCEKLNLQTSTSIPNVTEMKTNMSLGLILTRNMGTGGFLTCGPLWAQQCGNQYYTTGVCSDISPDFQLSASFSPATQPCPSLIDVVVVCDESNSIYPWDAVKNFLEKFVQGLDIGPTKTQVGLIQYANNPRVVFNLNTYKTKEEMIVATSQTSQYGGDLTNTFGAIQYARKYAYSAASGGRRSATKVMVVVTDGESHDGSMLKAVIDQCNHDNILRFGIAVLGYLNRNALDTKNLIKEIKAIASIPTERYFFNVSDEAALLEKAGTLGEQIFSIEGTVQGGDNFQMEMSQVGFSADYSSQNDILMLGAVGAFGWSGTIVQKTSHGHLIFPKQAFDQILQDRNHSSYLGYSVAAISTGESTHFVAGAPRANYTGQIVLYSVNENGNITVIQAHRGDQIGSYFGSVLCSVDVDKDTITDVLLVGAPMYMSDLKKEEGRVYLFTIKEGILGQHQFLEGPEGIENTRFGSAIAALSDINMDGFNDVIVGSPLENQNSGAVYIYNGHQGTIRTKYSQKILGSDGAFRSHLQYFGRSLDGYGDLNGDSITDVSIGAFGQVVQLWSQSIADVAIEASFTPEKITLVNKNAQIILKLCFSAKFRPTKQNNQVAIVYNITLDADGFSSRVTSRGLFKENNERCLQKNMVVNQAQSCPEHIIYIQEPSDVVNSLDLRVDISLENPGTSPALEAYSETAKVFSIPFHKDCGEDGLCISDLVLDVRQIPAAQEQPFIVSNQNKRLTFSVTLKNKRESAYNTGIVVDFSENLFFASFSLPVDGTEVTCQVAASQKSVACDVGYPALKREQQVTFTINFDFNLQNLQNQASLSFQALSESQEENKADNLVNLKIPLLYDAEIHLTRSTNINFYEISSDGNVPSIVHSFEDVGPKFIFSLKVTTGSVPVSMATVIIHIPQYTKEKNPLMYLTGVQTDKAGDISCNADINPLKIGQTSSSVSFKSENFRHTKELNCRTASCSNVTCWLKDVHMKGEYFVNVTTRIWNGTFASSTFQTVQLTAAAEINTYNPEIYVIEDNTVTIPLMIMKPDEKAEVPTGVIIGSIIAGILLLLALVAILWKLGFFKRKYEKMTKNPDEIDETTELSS
Sequence of UniProt P51955 (whole entry, looked up): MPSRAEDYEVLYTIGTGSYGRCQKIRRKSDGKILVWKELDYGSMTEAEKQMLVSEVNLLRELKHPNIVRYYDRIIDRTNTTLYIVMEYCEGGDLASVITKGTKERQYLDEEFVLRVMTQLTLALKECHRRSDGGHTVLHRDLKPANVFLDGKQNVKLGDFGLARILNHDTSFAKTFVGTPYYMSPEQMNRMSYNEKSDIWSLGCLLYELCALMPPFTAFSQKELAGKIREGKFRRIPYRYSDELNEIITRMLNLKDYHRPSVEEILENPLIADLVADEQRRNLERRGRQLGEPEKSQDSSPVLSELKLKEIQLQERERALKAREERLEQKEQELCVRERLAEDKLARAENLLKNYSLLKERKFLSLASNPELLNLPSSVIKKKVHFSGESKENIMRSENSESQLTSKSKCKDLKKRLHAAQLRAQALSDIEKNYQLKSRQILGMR
Sequence of UniProt P41227 (whole entry, looked up): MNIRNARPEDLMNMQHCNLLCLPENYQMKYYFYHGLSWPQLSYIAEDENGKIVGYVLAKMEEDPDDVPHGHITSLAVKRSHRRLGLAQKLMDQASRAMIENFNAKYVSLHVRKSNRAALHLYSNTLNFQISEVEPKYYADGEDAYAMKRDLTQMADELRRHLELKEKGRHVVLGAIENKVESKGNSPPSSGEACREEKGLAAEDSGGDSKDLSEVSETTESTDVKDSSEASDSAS
Sequence of UniProt P21397 (whole entry, looked up): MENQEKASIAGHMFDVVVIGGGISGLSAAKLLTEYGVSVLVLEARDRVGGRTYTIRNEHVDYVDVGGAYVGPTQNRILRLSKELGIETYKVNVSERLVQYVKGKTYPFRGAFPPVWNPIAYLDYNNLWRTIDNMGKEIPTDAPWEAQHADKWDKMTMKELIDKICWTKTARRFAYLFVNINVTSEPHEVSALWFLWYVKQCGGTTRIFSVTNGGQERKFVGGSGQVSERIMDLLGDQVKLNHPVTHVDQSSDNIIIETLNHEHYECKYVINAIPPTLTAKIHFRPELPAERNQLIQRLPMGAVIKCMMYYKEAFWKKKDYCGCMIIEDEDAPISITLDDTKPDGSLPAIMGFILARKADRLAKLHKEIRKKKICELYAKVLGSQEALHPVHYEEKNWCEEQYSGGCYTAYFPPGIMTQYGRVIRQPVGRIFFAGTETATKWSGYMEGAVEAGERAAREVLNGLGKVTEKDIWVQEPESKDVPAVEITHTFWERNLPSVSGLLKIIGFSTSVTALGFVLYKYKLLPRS

The inhibition of `Ic1ccccc1/N=N/c1ccc2nc(-c3ccccc3)c(I)c(-c3ccccc3)c2c1` is reported as 70.1% (APP; amyloid aggregation, inhibitor, fluorescence; 25 µM).
`O=C(N[C@H]1CCOC1=O)c1cccc(-n2cc(C3CCCCC3)nn2)c1` has an inhibition of 21% (lasR; reporter gene, antagonist; 10 µM, with: OdDHL 10 nM).
With `CC(=O)NC(Cc1ccc(Br)c(Cl)c1)C(=O)N[C@@H](C)C(=O)N1CCC[C@H]1C(=O)N1CCC[C@H]1C(=O)N[C@@H](CCC(=O)O)C(=O)N[C@@H](Cc1c[nH]cn1)C(=O)N[C@@H](CO)C(=O)N[C@H](C(=O)N[C@@H](C)C(N)=O)[C@@H](C)OP(=O)(O)O` (some centres unmarked) the inhibition was 0.08% (NEK2 (Homo sapiens, UniProt P51955); enzyme activity, inhibitor; 10 µM).
With `O=C(CCCc1ccccc1)N[C@H]1CCOC1=O` the inhibition was 0% (lasR; reporter gene, antagonist; 10 µM, with: 1 10 nM).
`O=C(Cn1cc(C2CCCC2)nn1)N[C@H]1CCOC1=O` gave an inhibition of 70% (lasR; reporter gene, antagonist; 100 µM, with: OdDHL 10 nM).
The inhibition of `Cc1ccc(-c2nc3ccc(/N=N/c4ccc([N+](=O)[O-])cc4)cc3c(-c3ccccc3)c2I)cc1` is reported as about 75% (APP; amyloid aggregation, inhibitor, fluorescence; 25 µM).
The inhibition of `O=C(O[C@@H]1Cc2c(O)cc(O)cc2O[C@@H]1c1cc(O)c(O)c(O)c1)c1cc(O)c(O)c(O)c1` is reported as over 40% (Genome polyprotein, protease (ZIKV, UniProt A0A024B7W1); enzyme activity, inhibitor, FRET; 100 µM, pH 7).
With `O=C(Nc1ccccc1Nc1ccccc1)c1cccnc1Cl` the inhibition was 21.8% (Succinate dehydrogenase complex (Sus scrofa, UniProt A5GZW8+D0VWV4+Q007T0+Q0QF01); enzyme activity, double-antibody sandwich ELISA; 0.5 µM).
`COc1cc2c3c(c4cc(OC)c(OC)cc4c2cc1OC)CN1CCCCC1C3` (centres unmarked): inhibition “no inhibition” (Replicase polyprotein 1ab, main protease (rep, Porcine transmissible gastroenteritis coronavirus, UniProt P0C6Y5); enzyme activity; concentration not given).
The inhibition of `CCCCCc1nc2ccc(/N=N/c3ccc(Cl)cc3)cc2c(-c2ccccc2)c1I` is reported as 64.5% (APP; amyloid aggregation, inhibitor, fluorescence; 25 µM).
`CCCCCCc1cn(CC(=O)N[C@H]2CCOC2=O)nn1` has an inhibition of 23% (lasR; reporter gene, antagonist; 100 µM, with: OdDHL 10 nM).
With `C/C(=N\OCCCN1CCCCC1)c1ccc(C(F)(F)F)cc1` the inhibition was 10.4% (HTR2B (Homo sapiens, UniProt P41595); antagonist, IP-One; 10 µM).
`C[C@@H](O)[C@H](NC(=O)[C@H](CCCCN)NC(=O)COCCN)C(=O)N[C@@H](CCCNC(=N)N)C(=O)NC(C)(C)C(=O)N[C@@H](CCCNC(=N)N)C(=O)NC(C)(C)C(=O)N[C@H](C(=O)N[C@@H](CO)C(=O)N[C@@H](Cc1c[nH]cn1)C(=O)N[C@@H](Cc1ccc(O)cc1)C(=O)NCC(=O)O)[C@@H](C)O` gave an inhibition of 35% (Integrin alpha-2, with integrin beta-1 (Homo sapiens, UniProt P17301); K562 expressing integrin α2; up to 1×1 µM; maximal).
With `O=C(N[C@H]1CCOC1=O)c1ccc(-c2cn(-c3ccc4[nH]ccc4c3)nn2)cc1` the inhibition was 23% (lasR; reporter gene, antagonist; 100 µM, with: OdDHL 10 nM).
`CC(C)(COP(=O)(O)OP(=O)(O)OC[C@H]1O[C@@H](n2cnc3c(N)ncnc32)[C@H](O)[C@@H]1OP(=O)(O)O)[C@@H](O)C(=O)NCCC(=O)NCCSCCC(=O)N[C@@H](CO)C(=O)NCC(=O)N[C@@H](CCCNC(=N)N)C(=O)NCC(=O)N[C@@H](CCCCN)C(N)=O` gave an inhibition of 10 to 40% (N-alpha-acetyltransferase 10 (Homo sapiens, UniProt P41227); enzyme activity, inhibitor; 1 µM).
`CCS(=O)(=O)N1CCN(CC(=O)Nc2ccc(/C=C/C(=O)c3ccc(OC)c(OC)c3)cc2)CC1` has an inhibition of 45% (MAOA (Homo sapiens, UniProt P21397); enzyme activity, inhibitor, fluorescence; 1 mM).
For `CCCCc1cn(CC(=O)N[C@H]2CCOC2=O)nn1`, the inhibition was 75% (lasR; reporter gene, antagonist; 100 µM, with: OdDHL 10 nM).
`CCCCCc1nc2ccc(/N=N/c3ccc([N+](=O)[O-])cc3)cc2c(-c2ccccc2)c1I` has an inhibition of 74.7 ± 2.3% (APP; fibril formation, ThT fluorescence; PBS; concentration not given, 24 h, 37 °C, with: Aβ42 25 µM).
For `[Cl][Au-][P+](c1ccccc1)(c1ccccc1)c1cc[cH-]c1.[Cl][Au-][P+](c1ccccc1)(c1ccccc1)c1cc[cH-]c1.[Cl][Ti+2][Cl]`, the inhibition was at least 50% (AKT3 (Homo sapiens, UniProt Q9Y243); kinase activity; 10 µM).
With `Cc1ccc(-c2nc3ccc(/N=N/c4ccc(Cl)cc4)cc3c(-c3ccccc3)c2I)cc1` the inhibition was 61.7% (APP; amyloid aggregation, inhibitor, fluorescence; 25 µM).
`CCN(CC)CCOc1ccc(-c2nnn(Cc3ccc(OC)cc3)c2N)cc1` has an inhibition of 60.9% (ADRA2A (Homo sapiens, UniProt P08913); radioligand binding; HEK293; 10 µM).
With `CCCCc1cn(-c2ccc(C(=O)N[C@H]3CCOC3=O)cc2)nn1` the inhibition was 60% (lasR; reporter gene, antagonist; 100 µM, with: OdDHL 10 nM).
For `O=C1NC(=O)c2c1c1cc(F)c[n+]3c1c1c2c2cc(O)ccc2[n]1[Ru-4]312([N]=C=S)[S+]3CC[S+]1CC[S+]2CC3` (centres unmarked), the inhibition was 93% (RPS6KB1 (Homo sapiens, UniProt P23443); enzyme activity, inhibitor; 0.1 µM).
With `O=C(N[C@H]1CCOC1=O)c1ccc(-n2cc(C3CC3)nn2)cc1` the inhibition was 10% (lasR; reporter gene, antagonist; 10 µM, with: OdDHL 10 nM).
`N#CC1(c2ccc3c(N)ncnn23)OC(COP(=O)(O)OP(=O)(O)OP(=O)(O)O)C(O)C1O` (centres unmarked) — result for inhibition: “no inhibition” (POLRMT (Homo sapiens, UniProt O00411); enzyme activity; concentration not given).
`CSCC[C@H](NC(=O)[C@H](Cc1ccccc1)NC(=O)[C@H](CCSC)NC(=O)[C@@H](NC(=O)[C@@H]1CCCN1C(=O)[C@H](Cc1ccccc1)NC(=O)[C@H](CC(=O)O)NC(=O)CN)C(C)C)C(=O)O`: inhibition “no inhibition” (OGT (Homo sapiens, UniProt O15294); enzyme activity, fluorescence activity; concentration not given).
For `CC1CN1c1cc(O)c2nc(N)sc2c1` (centres unmarked), inhibition read “inactive” (HDACs, sirtuins and HATs; 50 µM, 1 h).
With `CCOC(=O)/C=C/c1c(-c2ccc(C)cc2)nc2ccc(/N=N/c3ccc([N+](=O)[O-])cc3)cc2c1-c1ccccc1` the inhibition was 77.2 ± 2.5% (APP; fibril formation, ThT fluorescence; PBS; concentration not given, 24 h, 37 °C, with: Aβ42 25 µM).
With `O=C(Cn1cc(-c2ccccc2)nn1)N[C@H]1CCOC1=O` the inhibition was 56% (lasR; reporter gene, antagonist; 100 µM, with: OdDHL 10 nM).

For quick reference, copied from above:
`C[C@@H](O)[C@H](NC(=O)[C@H](CCCCN)NC(=O)COCCN)C(=O)N[C@@H](CCCNC(=N)N)C(=O)NC(C)(C)C(=O)N[C@@H](CCCNC(=N)N)C(=O)NC(C)(C)C(=O)N[C@H](C(=O)N[C@@H](CO)C(=O)N[C@@H](Cc1c[nH]cn1)C(=O)N[C@@H](Cc1ccc(O)cc1)C(=O)NCC(=O)O)[C@@H](C)O` gave an inhibition of 35% (Integrin alpha-2, with integrin beta-1 (Homo sapiens, UniProt P17301); K562 expressing integrin α2; up to 1×1 µM; maximal).
`CC(C)(COP(=O)(O)OP(=O)(O)OC[C@H]1O[C@@H](n2cnc3c(N)ncnc32)[C@H](O)[C@@H]1OP(=O)(O)O)[C@@H](O)C(=O)NCCC(=O)NCCSCCC(=O)N[C@@H](CO)C(=O)NCC(=O)N[C@@H](CCCNC(=N)N)C(=O)NCC(=O)N[C@@H](CCCCN)C(N)=O` gave an inhibition of 10 to 40% (N-alpha-acetyltransferase 10 (Homo sapiens, UniProt P41227); enzyme activity, inhibitor; 1 µM).
With `C/C(=N\OCCCN1CCCCC1)c1ccc(C(F)(F)F)cc1` the inhibition was 10.4% (HTR2B (Homo sapiens, UniProt P41595); antagonist, IP-One; 10 µM).
With `CC(=O)NC(Cc1ccc(Br)c(Cl)c1)C(=O)N[C@@H](C)C(=O)N1CCC[C@H]1C(=O)N1CCC[C@H]1C(=O)N[C@@H](CCC(=O)O)C(=O)N[C@@H](Cc1c[nH]cn1)C(=O)N[C@@H](CO)C(=O)N[C@H](C(=O)N[C@@H](C)C(N)=O)[C@@H](C)OP(=O)(O)O` (some centres unmarked) the inhibition was 0.08% (NEK2 (Homo sapiens, UniProt P51955); enzyme activity, inhibitor; 10 µM).
The inhibition of `CCCCCc1nc2ccc(/N=N/c3ccc(Cl)cc3)cc2c(-c2ccccc2)c1I` is reported as 64.5% (APP; amyloid aggregation, inhibitor, fluorescence; 25 µM).
